Published values pooled from the literature.
Lines come from different studies, so protocols differ.

Compound | species | medium | route | dose | setting | Cmax
N#Cc1cnc2cc(OCC3CCNCC3)c(F)cc2c1Nc1cc(F)c(OCc2cccc(Cl)n2)cc1Cl | male Sprague-Dawley rat | plasma | oral | 100 mg/kg |  | 396 ng/mL
Cn1cc(-c2cc(N3CCCCS3(=O)=O)ccc2N[C@H]2CC[C@H](C)CC2)c2cc[nH]c2c1=O (stereo in doubt) | Sprague-Dawley rat | plasma | oral | 3 mg/kg |  | 110 ng/mL
CNC(=O)N[C@]1(C)CCC[C@@]2(C)C3CC[C@@]4(C)C[C@]3(CCC21)CC4=O (single isomer, unassigned) | male Sprague-Dawley rat | plasma | oral | 2 mg/kg |  | 71.4 ng/mL
O=C(Nc1ccc(OC(F)(F)F)cc1)N1CCC(Cc2cccc(Oc3ccc(C(F)(F)F)cn3)c2)CC1 | male Sprague-Dawley rat | blood | oral | 1 mg/kg |  | 0.044 µM
CN1Cc2c(Cl)cc(Cl)cc2C(c2ccc(S(=O)(=O)NCCOCCOCCOCCNC(=O)C(O)C(O)C(=O)NCCOCCOCCOCCNS(=O)(=O)c3ccc(C4CN(C)Cc5c(Cl)cc(Cl)cc54)cc3)cc2)C1 (stereo not drawn) | male Sprague-Dawley rat | plasma | oral | 10 mg/kg |  | < 5 ng/mL
CC1(C)CNC(=O)c2ccccc21 | rat | plasma | oral | 5 mg/kg | single dose | 1270 ng/mL
CCc1c(Cl)cccc1N1CCN(C[C@H](F)CCNC(=O)c2cc3ccccc3[nH]2)CC1 | male Long-Evans rat | plasma | oral | 10 mg/kg |  | 2.13 µM
CN1CCN(c2ccc(Nc3ncc(Cl)c(Nc4ccccc4P(C)(C)=O)n3)cc2Br)CC1 | male Sprague-Dawley rat | plasma | oral | 25 mg/kg |  | 326 ng/mL
CC12CC3CC(C)(C1)CC(NC(=O)Nc1ccc(C(=O)N4CCC[C@H](C(N)=O)C4)cc1F)(C3)C2 | Sprague-Dawley rat | plasma | intravenous | 10 mg/kg |  | 7.11 µM
Nc1nc(Cl)nc2c1ncn2Cc1cc(OCC(F)F)cc(OC(F)F)c1 | Sprague-Dawley rat | plasma | oral | 5 mg/kg |  | 1560 ng/mL
CN1Cc2c(Cl)cc(Cl)cc2[C@H](c2ccc(S(=O)(=O)NCCOCCOCCNC(=O)COCC(=O)NCCOCCOCCNS(=O)(=O)c3ccc([C@@H]4CN(C)Cc5c(Cl)cc(Cl)cc54)cc3)cc2)C1 | male Sprague-Dawley rat | plasma | oral | 30 mg/kg |  | < 2 ng/mL
Cc1ccc(OCC(=O)N(Cc2cccs2)c2ccn[nH]2)cc1 | female Sprague-Dawley rat | plasma | oral | 10 mg/kg | single dose | 8.51 ng/mL
Cc1cc(/C=C2\CN(C(C)C)C/C(=C\c3cc(C)c(O)c(C)c3)C2=O)cc(C)c1O | female Sprague-Dawley rat | plasma | intravenous | 20 mg/kg |  | 3200 ng/mL
COc1c2c(cc3oc(CO)cc(=O)c13)O[C@H](C(C)(C)O)C2 | male Sprague-Dawley rat | plasma | oral | 2 mg/kg |  | 200 ng/mL
CSCOC1C(=O)C2(C)C(OCSC)CC3OCC3(OC(C)=O)C2C(OC(=O)c2ccccc2)C2(O)CC(OC(=O)C(O)C(C=C(C)C)NC(=O)OC(C)(C)C)C(C)=C1C2(C)C (stereo not drawn) | male Sprague-Dawley rat | plasma | intravenous | 4 mg/kg |  | 1360 ng/mL
CC(C)(C)C(=O)Nc1ccc2[nH]c(CN3CCC(N(CCCN4CCOCC4)CC4OC(n5cnc6c(N)ncnc65)C(O)C4O)CC3)nc2c1 (stereo not drawn) | male Sprague-Dawley rat | plasma | intravenous | 20 mg/kg |  | 5840 ng/mL
CCNC(=O)[C@@H]1CCCN1C(=O)[C@H](CCCNC(=N)N)NC(=O)[C@H](CC(C)C)NC(=O)[C@@H](CC(C)C)NC(=O)[C@H](Cc1ccc(O)cc1)NC(=O)[C@H](CO)NC(=O)[C@H](Cc1c[nH]c2ccccc12)NC(=O)[C@H](Cc1c[nH]cn1)NC(=O)[C@@H]1CCC(=O)N1 | male Sprague-Dawley rat | plasma | subcutaneous | 12.5 mg/kg | single dose | 2780 ng/mL
CC12CC3CC(C)(C1)CC(NC(=O)Nc1ccc(C(=O)N4CCCC(C(N)=O)C4)cc1)(C3)C2 (stereo not drawn) | Sprague-Dawley rat | plasma | oral | 10 mg/kg |  | 0.12 µM
C[Si]1(C[C@@H](CN)CC(=O)O)CCCC1 | male Sprague-Dawley rat | plasma | oral | 100 mg/kg | single dose | 97.5 µM
Cc1cc(/C=C/C#N)cc(C)c1Oc1nc(NC2CCN(Cc3ccc(P(C)(C)=O)cc3)CC2)nc2ccsc12 | male Sprague-Dawley rat | plasma | oral | 10 mg/kg |  | 333 ng/mL
CN1Cc2c(Cl)cc(Cl)cc2C(c2cccc(S(=O)(=O)NCCOCCOCCNC(=O)C(O)C(O)C(=O)NCCOCCOCCNS(=O)(=O)c3cccc(C4CN(C)Cc5c(Cl)cc(Cl)cc54)c3)c2)C1 (stereo not drawn) | male Sprague-Dawley rat | plasma | oral | 9 mg/kg |  | < 1 ng/mL
COc1cc2ncnc(Oc3ccc(Nc4nccc5[nH]cc(-c6ccc(F)cc6)c(=O)c45)cc3F)c2cc1OC | male Sprague-Dawley rat | plasma | intravenous | 5 mg/kg |  | 30700 ng/mL
N=C(N)NCCC[C@H](NC(=O)[C@@H]1CCCN1C(=O)[C@H](Cc1ccccc1)NC(=O)[C@@H]1CCCN1C(=O)[C@H](Cc1c[nH]cn1)NC(=O)[C@@H](N)Cc1ccccc1)C(=O)O | male Sprague-Dawley rat | plasma | oral | 50 mg/kg |  | 125 ng/mL
C[Si](C)(C)C[C@@H](CN)CC(=O)O | male Sprague-Dawley rat | plasma | oral | 30 mg/kg | single dose | 54 µM

For quick reference, copied from above:
Compound | species | medium | route | dose | setting | Cmax
Cc1ccc(OCC(=O)N(Cc2cccs2)c2ccn[nH]2)cc1 | female Sprague-Dawley rat | plasma | oral | 10 mg/kg | single dose | 8.51 ng/mL
CC(C)(C)C(=O)Nc1ccc2[nH]c(CN3CCC(N(CCCN4CCOCC4)CC4OC(n5cnc6c(N)ncnc65)C(O)C4O)CC3)nc2c1 (stereo not drawn) | male Sprague-Dawley rat | plasma | intravenous | 20 mg/kg |  | 5840 ng/mL
COc1cc2ncnc(Oc3ccc(Nc4nccc5[nH]cc(-c6ccc(F)cc6)c(=O)c45)cc3F)c2cc1OC | male Sprague-Dawley rat | plasma | intravenous | 5 mg/kg |  | 30700 ng/mL
